Assay results pooled from the literature.
Numbered parts are unrelated; each lists some results of a single study. Values joined by “and” are separate records of one study, mostly repeats; a detail may differ.
Chain of UniProt Q8WTQ7 (whole entry, looked up): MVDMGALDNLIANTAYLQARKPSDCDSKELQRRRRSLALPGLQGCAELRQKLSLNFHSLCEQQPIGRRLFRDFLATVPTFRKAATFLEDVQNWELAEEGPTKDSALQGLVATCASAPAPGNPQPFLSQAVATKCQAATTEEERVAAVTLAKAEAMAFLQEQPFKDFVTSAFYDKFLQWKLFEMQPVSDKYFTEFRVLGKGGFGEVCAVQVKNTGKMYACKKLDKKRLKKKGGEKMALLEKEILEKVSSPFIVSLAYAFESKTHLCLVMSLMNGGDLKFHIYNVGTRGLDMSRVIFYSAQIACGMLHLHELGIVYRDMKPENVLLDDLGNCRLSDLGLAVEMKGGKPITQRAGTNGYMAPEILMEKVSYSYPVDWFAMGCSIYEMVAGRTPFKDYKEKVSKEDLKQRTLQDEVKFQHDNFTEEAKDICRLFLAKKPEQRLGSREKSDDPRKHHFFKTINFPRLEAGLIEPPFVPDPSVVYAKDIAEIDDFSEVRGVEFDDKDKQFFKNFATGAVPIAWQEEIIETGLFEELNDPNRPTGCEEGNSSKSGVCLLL
Chain of UniProt P78368 (whole entry, looked up): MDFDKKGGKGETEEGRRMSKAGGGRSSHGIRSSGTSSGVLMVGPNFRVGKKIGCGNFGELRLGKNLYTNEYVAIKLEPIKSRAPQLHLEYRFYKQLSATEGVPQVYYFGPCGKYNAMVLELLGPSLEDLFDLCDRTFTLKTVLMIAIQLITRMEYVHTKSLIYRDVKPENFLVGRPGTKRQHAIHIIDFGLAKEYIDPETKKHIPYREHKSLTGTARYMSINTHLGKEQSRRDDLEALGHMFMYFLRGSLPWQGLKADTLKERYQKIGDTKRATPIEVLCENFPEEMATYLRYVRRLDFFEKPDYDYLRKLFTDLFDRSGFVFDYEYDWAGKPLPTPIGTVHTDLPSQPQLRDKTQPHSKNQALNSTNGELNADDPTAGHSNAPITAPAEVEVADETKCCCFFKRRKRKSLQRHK
Chain of UniProt Q99558 (whole entry, looked up): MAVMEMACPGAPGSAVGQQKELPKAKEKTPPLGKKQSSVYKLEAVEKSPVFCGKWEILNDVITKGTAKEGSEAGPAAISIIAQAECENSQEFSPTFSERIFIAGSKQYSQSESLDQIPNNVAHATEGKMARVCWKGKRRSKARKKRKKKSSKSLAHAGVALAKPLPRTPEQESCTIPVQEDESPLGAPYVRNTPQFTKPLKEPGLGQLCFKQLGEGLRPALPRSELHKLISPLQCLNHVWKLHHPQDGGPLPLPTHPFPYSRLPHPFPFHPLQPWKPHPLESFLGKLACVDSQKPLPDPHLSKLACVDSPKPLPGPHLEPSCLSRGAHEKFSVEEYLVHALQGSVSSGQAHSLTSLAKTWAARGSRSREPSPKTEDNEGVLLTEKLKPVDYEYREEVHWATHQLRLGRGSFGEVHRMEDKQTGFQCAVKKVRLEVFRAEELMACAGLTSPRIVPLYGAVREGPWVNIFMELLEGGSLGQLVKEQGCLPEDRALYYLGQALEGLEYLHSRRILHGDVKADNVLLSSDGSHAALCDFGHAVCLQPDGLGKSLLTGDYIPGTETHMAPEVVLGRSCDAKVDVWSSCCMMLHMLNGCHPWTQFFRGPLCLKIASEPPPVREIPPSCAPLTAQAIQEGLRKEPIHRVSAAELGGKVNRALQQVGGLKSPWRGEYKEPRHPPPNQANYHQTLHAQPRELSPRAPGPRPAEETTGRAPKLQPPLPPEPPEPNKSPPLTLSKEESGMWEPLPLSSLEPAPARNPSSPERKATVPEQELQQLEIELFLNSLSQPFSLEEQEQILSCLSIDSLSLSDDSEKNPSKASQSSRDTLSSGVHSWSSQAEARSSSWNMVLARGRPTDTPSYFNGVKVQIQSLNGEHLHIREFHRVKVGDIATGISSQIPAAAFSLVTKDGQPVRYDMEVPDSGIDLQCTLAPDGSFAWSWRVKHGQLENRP
Chain of UniProt O75747 (whole entry, looked up): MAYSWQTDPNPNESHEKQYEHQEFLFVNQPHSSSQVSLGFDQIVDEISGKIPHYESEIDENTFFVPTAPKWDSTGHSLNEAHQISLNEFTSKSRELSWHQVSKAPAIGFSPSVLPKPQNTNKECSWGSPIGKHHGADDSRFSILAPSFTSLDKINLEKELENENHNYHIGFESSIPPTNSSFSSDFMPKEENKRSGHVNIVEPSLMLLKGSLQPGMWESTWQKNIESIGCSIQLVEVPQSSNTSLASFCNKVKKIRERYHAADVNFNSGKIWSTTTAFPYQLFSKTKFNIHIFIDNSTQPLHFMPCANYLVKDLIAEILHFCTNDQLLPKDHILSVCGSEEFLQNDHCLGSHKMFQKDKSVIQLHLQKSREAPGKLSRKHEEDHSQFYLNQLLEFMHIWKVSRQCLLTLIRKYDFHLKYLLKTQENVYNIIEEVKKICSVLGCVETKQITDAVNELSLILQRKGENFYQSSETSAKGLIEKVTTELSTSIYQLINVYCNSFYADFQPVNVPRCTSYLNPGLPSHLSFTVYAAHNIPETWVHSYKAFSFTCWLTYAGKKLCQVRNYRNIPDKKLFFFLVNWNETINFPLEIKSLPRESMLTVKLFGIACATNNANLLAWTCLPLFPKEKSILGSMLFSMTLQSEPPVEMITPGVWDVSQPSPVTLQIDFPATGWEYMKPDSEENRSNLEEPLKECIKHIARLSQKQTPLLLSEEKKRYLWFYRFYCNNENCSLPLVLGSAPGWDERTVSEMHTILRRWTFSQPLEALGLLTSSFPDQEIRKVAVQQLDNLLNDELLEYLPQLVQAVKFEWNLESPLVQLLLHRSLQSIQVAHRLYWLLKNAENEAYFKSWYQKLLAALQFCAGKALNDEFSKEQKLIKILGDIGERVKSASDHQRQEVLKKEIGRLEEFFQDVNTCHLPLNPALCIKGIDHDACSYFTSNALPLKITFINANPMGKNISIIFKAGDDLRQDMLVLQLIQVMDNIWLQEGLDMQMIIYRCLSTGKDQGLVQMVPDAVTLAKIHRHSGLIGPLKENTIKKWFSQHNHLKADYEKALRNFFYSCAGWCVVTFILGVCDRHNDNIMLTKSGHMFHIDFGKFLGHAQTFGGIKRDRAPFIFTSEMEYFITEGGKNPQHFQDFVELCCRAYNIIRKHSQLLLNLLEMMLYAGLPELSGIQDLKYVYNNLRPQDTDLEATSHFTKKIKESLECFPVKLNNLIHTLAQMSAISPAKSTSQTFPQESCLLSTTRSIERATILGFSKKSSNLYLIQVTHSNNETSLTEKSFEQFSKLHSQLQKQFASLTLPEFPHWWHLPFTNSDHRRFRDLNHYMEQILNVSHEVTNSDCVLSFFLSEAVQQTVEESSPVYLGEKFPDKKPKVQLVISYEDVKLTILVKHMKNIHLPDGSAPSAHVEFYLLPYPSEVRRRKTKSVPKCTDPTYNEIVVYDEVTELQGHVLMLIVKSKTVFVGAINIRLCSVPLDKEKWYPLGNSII
Chain of UniProt O75385 (whole entry, looked up): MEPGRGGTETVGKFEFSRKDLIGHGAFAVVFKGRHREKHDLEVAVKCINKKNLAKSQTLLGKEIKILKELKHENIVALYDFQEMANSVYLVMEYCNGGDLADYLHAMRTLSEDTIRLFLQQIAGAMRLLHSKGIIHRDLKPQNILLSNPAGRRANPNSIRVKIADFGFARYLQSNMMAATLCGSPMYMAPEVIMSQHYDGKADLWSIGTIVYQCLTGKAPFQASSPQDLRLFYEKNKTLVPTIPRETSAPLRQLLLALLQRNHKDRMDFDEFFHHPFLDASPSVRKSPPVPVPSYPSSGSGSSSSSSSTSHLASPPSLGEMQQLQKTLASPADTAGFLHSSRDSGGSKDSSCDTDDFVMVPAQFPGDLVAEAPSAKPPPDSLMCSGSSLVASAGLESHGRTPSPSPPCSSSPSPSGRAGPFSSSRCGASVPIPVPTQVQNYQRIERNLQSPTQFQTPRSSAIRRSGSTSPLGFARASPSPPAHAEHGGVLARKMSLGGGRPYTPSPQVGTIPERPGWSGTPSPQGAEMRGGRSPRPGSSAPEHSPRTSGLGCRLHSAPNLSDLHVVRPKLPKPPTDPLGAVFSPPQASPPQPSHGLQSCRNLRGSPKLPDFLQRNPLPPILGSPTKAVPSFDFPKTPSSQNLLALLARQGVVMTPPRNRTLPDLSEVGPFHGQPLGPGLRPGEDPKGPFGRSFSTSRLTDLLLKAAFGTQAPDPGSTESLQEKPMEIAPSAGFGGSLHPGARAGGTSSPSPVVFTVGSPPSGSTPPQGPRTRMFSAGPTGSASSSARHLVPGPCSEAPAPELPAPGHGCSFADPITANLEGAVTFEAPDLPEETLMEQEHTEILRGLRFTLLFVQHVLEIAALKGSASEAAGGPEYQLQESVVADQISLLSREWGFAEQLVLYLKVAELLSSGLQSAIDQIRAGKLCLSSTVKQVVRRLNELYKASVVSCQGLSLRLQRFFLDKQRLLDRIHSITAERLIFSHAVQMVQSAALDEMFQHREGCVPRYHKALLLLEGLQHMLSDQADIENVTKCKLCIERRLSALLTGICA
Chain of UniProt P49841 (whole entry, looked up): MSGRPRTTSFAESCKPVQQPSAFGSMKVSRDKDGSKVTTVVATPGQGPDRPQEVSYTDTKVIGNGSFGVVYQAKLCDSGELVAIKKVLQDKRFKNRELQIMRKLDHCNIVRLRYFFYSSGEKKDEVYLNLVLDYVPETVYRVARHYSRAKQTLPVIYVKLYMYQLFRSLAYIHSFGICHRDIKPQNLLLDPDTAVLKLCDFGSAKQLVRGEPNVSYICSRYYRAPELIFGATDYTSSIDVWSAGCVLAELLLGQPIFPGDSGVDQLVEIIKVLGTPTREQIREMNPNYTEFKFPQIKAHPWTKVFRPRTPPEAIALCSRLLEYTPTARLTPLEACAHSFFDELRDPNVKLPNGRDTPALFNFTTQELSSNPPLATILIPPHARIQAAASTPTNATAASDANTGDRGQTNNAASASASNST

Set 1
Structure (SMILES): COc1cc(-c2cn(C3CCc4ccccc4N(CC(F)(F)F)C3=O)nn2)ccc1-n1ccc(C)n1 (centres unmarked)
Observed: cell-free assay
Technique: competition with immobilised ligand
Tested at: 1 µM
target	remaining binding
NTRK3 (Homo sapiens, UniProt Q16288)	98%
PIK3C2G (Homo sapiens, UniProt O75747)	65%
DCLK1 (Homo sapiens, UniProt O15075)	100%
TGFBR1 (Homo sapiens, UniProt P36897)	100%
ULK1 (Homo sapiens, UniProt O75385)	76%
PRKCQ (Homo sapiens, UniProt Q04759)	94%

Set 2
Cell line: HaCaT
Tested at: 100 µM
Time: 18 h
Structure (SMILES)	viability
CN1C(C(=O)Nc2ccccn2)=C(O)c2sc(Cl)cc2S1(=O)=O	70.4%
O=c1c(-c2ccc(O)cc2)coc2c([C@@H]3O[C@H](CO)[C@@H](O)[C@H](O)[C@H]3O)c(O)ccc12	110%
S=P(N1CC1)(N1CC1)N1CC1	110%
Cc1c(-c2ccc(O)cc2)n(Cc2ccc(OCCN3CCCCCC3)cc2)c2ccc(O)cc12	19%
O=C1OC(CN2CCOCC2)CN1/N=C/c1ccc([N+](=O)[O-])o1 (centres unmarked)	81.9%
Cc1ccccc1C(=O)Nc1ccc(C(=O)N2CCCC(O)c3cc(Cl)ccc32)c(C)c1 (centres unmarked)	64.6%
CCC1(c2ccccc2)C(=O)NCNC1=O	114%
NC(=O)N/N=C/c1ccc([N+](=O)[O-])o1	85.7%

Set 3
Cell line: mouse MPNST tumor cells
Technique: high-content nuclear imaging
Refers to: cell number
Tested at: 10 µM
Time: 12 h
Notes: mean of 2 replicates
Reference: plate mean
Direction: higher = more cells
SMILES	nuclei count
CC(C)c1ccc(OCC(=O)NC2CC(C)(C)NC(C)(C)C2)c(Br)c1	-4.64 z-score
O=C(NN=Cc1ccccc1O)c1ccccc1O	-3.78 z-score
CCN1CCC[C@H]1CNC(=O)c1c(O)c(Cl)cc(Cl)c1OC	-0.825 z-score and -1.01 z-score
CC(=O)[C@H]1CC[C@H]2[C@@H]3C=CC4=CC(=O)CC[C@@]4(C)[C@@H]3CC[C@]12C	1.92 z-score
COc1ccc(-n2cnnn2)cc1CN[C@H]1CCCN[C@H]1c1ccccc1	2.03 z-score
CCn1cc(C(=O)O)c(=O)c2cnc(N3CCCC3)nc21	1.89 z-score
CC(=O)S[C@@H]1CC2=CC(=O)CC[C@]2(C)[C@H]2CC[C@@]3(C)[C@@H](CC[C@@]34CCC(=O)O4)[C@H]12	1.31 z-score and -0.495 z-score and 0.0241 z-score

Set 4
SMILES: Oc1ccc(Nc2nc(-c3ccc(Cl)cc3)cs2)cc1
Observed: enzyme activity
Action: inhibitor
Tested at: 0.5 µM
Reference: control
target	remaining activity
TAOK2 (Homo sapiens, UniProt Q9UL54)	101%
MAP3K5 (Homo sapiens, UniProt Q99683)	108%
TBK1 (Homo sapiens, UniProt Q9UHD2)	95.2%
FGFR1 (Homo sapiens, UniProt P11362)	82.5%
CSNK1G2 (Homo sapiens, UniProt P78368)	91.8%
GRK7 (Homo sapiens, UniProt Q8WTQ7)	109%
ABL2 (Homo sapiens, UniProt P42684)	93.4%
NEK6 (Homo sapiens, UniProt Q9HC98)	95.2%
GSK3B (Homo sapiens, UniProt P49841)	110%
CSNK1G3 (Homo sapiens, UniProt Q9Y6M4)	103%
JAK3 (Homo sapiens, UniProt P52333)	92.2%
MAP3K14 (Homo sapiens, UniProt Q99558)	102%
MAP2K2 (Homo sapiens, UniProt P36507)	109%
MAPK3 (Homo sapiens, UniProt P27361)	104%

Repeated from above (set 1):
target	remaining binding
NTRK3 (Homo sapiens, UniProt Q16288)	98%
PIK3C2G (Homo sapiens, UniProt O75747)	65%
DCLK1 (Homo sapiens, UniProt O15075)	100%
